Experimental data from different studies.
Each line is one published result; not all experiments were run side by side. ± gives the spread as reported.

| Substance | organism | test | system | conditions | EC50 [nM] |
| --- | --- | --- | --- | --- | --- |
| O=C(/C=C/c1ccc(O)cc1)c1ccc(F)cc1 | Plasmodium knowlesi | parasite growth |  | 24 h, blood stage | 78900 |
| O=c1[nH]c(=O)c2ncn(C[C@@H](CO)OCP(=O)(O)O)c2[nH]1 | human cytomegalovirus | cytopathic effect | HEL, AD169 |  | 80200 ± 36000 |
| CC1(C)[C@@H](O[C@H]2O[C@H](C(=O)O)[C@@H](O)[C@H](O)[C@H]2O[C@@H]2O[C@H](C(=O)O)[C@@H](O)[C@H](O)[C@H]2O)CC[C@]2(C)[C@H]3C(=O)C=C4[C@@H]5C[C@@](C)(C(=O)O)CC[C@]5(C)CC[C@@]4(C)[C@]3(C)CC[C@@H]12 | Epstein-Barr virus | viral genome copies, quantitative PCR | superinfected Raji cells | 24 h | 30000 ± 5000 |
| CCOC(=O)C1=C(CN2CCOCC2)NC(c2nccs2)=NC1c1ccc(F)cc1Br (centres unmarked) | hepatitis B virus | viral replication, chemiluminescence immunoassay, refers to: secreted HBeAg | HBV-infected HepG2-NTCP cells | 7 days post-infection, dosed from 24 h pre-infection | 804 ± 45 |
| O=[N+]([O-])c1cn2c(n1)OC[C@H](Oc1ccc(OC(F)(F)F)cc1)C2 | Leishmania tropica | parasite growth | mouse Peritoneal macrophage | 72 h, intracellular, amastigote | 1330 |
| CNC(=O)c1ccc(-c2cnn3ccc(C(=O)N(CCC(=O)OCC(=O)N(C)C)c4ccc(Cl)cc4)cc23)cc1 | Cryptosporidium parvum | cytopathic effect | HCT-8 | 48 h | > 20000 |
| COc1cc(C=C2CCCC(=Cc3ccc(O)c(OC)c3)C2=O)ccc1O | dengue virus 2 | viral replication | BHK-21 DENV2 replicon | 24 h | 8070 ± 1520 |
| C#CCNC(=O)C(=O)c1c(C)c(C(=O)Nc2ccc(F)c(F)c2)n(C)c1C | hepatitis B virus | viral replication, immunofluorescence, refers to: HBcAg | HBV-infected HepG2-NTCP cells | 7 days post-infection, dosed from 24 h pre-infection | 1280 ± 902 |
| Nc1nc2c(ncn2COCCO)c(=O)[nH]1 | Human alphaherpesvirus 1 | cytopathic effect | HFF, E-377 |  | 870 |
| O=C(/C=C/c1ccc(CN2CCCCC2)c(O)c1)c1ccc(Br)cc1 | Plasmodium knowlesi | parasite growth |  | 24 h, blood stage | 100 |
| interferon alfa | hepatitis B virus | HBeAg secretion, inhibitor | HepG2-NTCP cells | 7 days post-infection, treatment from 24 h pre-infection | 85 ± 17 |
| CCN(CC)CCCC(C)Nc1ccnc2cc(Cl)ccc12 (centres unmarked) | Plasmodium knowlesi | parasite growth |  | 24 h, blood stage | 40 |
| CCOC(=O)c1ccc(OCCC2CCN(c3ccc(C)nn3)CC2)cc1 | Enterovirus A71 | cytopathic effect, neutral red uptake | RD, Tainan/4643/98 | 37 °C, no MgCl2 | 780 ± 320 |
| CC1CCN(Cc2ccc(/C=C/C(=O)c3ccc(Cl)cc3)cc2O)CC1 | Plasmodium knowlesi | parasite growth |  | 24 h, blood stage | 31800 |
| CC(C)(c1ccc(O)cc1)c1ccc(O)cc1 | SV40 | cytoprotection | BSC-40 | 120 h | 6200 |
| CC1CCN(Cc2cc(/C=C/C(=O)c3ccc(Cl)cc3)ccc2O)CC1 | Plasmodium knowlesi | parasite growth |  | 24 h, blood stage | 19900 |
| Nc1nc2c(ncn2COCCO)c(=O)[nH]1 | Human alphaherpesvirus 1 | plaque formation | Vero, KOS | 55 h, 1% DMSO | 810 |

Excerpt of the above:
| Substance | organism | test | system | conditions | EC50 [nM] |
| --- | --- | --- | --- | --- | --- |
| interferon alfa | hepatitis B virus | HBeAg secretion, inhibitor | HepG2-NTCP cells | 7 days post-infection, treatment from 24 h pre-infection | 85 ± 17 |
